Measured values from different studies.
± marks the error that the study gave.

Structure (SMILES)	test	system	setting	Cmax
Cc1csc(-c2nnc(Nc3ccc(Oc4ncccc4-c4ccnc(N)n4)cc3)c3ccccc23)c1	LC-MS/MS	human, plasma	oral, 40 mg, cycle 1 day 4, dose-expansion cohorts, mean, with: G-CSF	906 to 1670 ng/mL
COc1ccnc(C[S+]([O-])c2nc3ccc(OC(F)F)cc3[nH]2)c1OC (stereo not shown)		human, CYP2C19 intermediate metabolizers, plasma	oral, 40 mg/day, day 5	9570 ± 420 ng/mL
C=C(C)[C@@H]1CC[C@]2(NCCN3CCS(=O)(=O)CC3)CC[C@]3(C)[C@H](CC[C@@H]4[C@@]5(C)CC=C(C6=CC[C@@](CF)(C(=O)O)CC6)C(C)(C)[C@@H]5CC[C@]43C)[C@@H]12		healthy human volunteers	oral, 200 mg, tablet, moderate-fat meal, arithmetic mean	1430 ng/mL
O=C(c1ccc(F)c(F)c1Nc1ccc(I)cc1F)N1CC(O)([C@@H]2CCCCN2)C1		human, plasma	oral, 100 mg, steady state	649 ng/mL
CN(Cc1nc2c(N)nc(N)nc2[nH]c1=O)c1ccc(C(=O)N[C@@H](CCC(=O)O)C(=O)O)cc1		human, plasma	oral, 20 mg methotrexate, day 1, alone, arithmetic mean	83.3 ng/mL
Cc1ccc(NC(=O)c2ccc(CN3CCNCC3)cc2)cc1Nc1nccc(-c2cccnc2)n1		human patients, plasma	oral, 400 mg/day of imatinib, day 14 of cycle 1, with: IL-2 6 MIU/day days 10-14	727 ng/mL
C=C(C)[C@@H]1CC[C@]2(NCCN3CCS(=O)(=O)CC3)CC[C@]3(C)[C@H](CC[C@@H]4[C@@]5(C)CC=C(C6=CC[C@@](CF)(C(=O)O)CC6)C(C)(C)[C@@H]5CC[C@]43C)[C@@H]12		human	oral, 100 mg once daily, day 14, multiple ascending dose	1180 ng/mL
Nc1ccc(-c2nc([C@H]3CCc4cc(-c5cc(Cl)ccc5-n5cnnn5)cc(=O)n43)c(F)[nH]2)c(F)n1		human, plasma	oral, 250 mg once daily, fed, day 1	1770 ng/mL
Cc1cc(-c2nnc(N)nc2-c2ccc(F)cc2)cc(Cl)n1		human patients, plasma	oral, 75 mg nanosuspension, single dose, arithmetic mean	656 ng/mL
O=C(CCCCCCC(=O)Nc1ccccc1)NO	median	human patients, serum	oral, 100 mg three times daily, 14-day and 3-day cohorts	331 to 445 nM
CN1CC[C@H](c2c(O)cc(O)c3c(=O)cc(-c4ccccc4Cl)oc23)[C@H](O)C1	HPLC-MS/MS	human, plasma	intravenous, 40 then 40 mg/m^2, 30 min bolus then 4 h infusion, cycle 1, mean, with: irinotecan 180 mg/m^2	2150 nM
Cc1ccc(NC(=O)c2ccc(CN3CCN(C)CC3)cc2)cc1Nc1nccc(-c2cncc(-c3oncc3C)c2)n1		older healthy human adults, plasma	oral, 100 mg single dose, fed, mean	5320 ng/mL
Cc1cc(C)c2c(c1)[C@@H](N(Cc1cc(C(F)(F)F)cc(C(F)(F)F)c1)c1nnn(C)n1)CCCN2C[C@H]1CC[C@H](C(=O)O)CC1		healthy humans, plasma	oral, 100 mg, geometric mean, with: ketoconazole 400 mg	611 ng/mL
CCN1CCN(Cc2ccc(Nc3ncc(F)c(-c4cc(F)c5nc(C)n(C(C)C)c5c4)n3)nc2)CC1		human patients, plasma	oral, 200 mg single, geometric mean	141 ng/mL
CS(=O)(=O)Nc1ccc(C(=O)O[C@@H](Cc2c(Cl)c[n+]([O-])cc2Cl)c2ccc(OC(F)F)c(OCC3CC3)c2)cc1OCC1CC1		human, plasma	inhaled, 1600 µg once daily, day 7, single-dose dry powder inhaler	1.97 ng/mL
O=C(O)[C@H](c1ccccc1Cl)N1CCc2sccc2C1		human patients, CYP3A4 wt/wt, plasma	oral, 75 mg clopidogrel daily, day 7, median	1950 ng/mL
CS(=O)(=O)n1cc2c(n1)CN([C@H]1CO[C@H](c3cc(F)ccc3F)[C@@H](N)C1)C2		healthy male human, plasma	oral, 50 mg once weekly, day 15, fasted, geometric mean	1080 nM
CCCCCCCCCCCCCCC[C@H](O)[C@@H](N)CO		human, phase I, plasma	intravenous, 60 mg/m^2, day 1, monotherapy	1700 nM
CC(C)(Sc1ccncc1-c1ccc(C#N)c2ccccc12)C(=O)O		human male, plasma	oral, 10 mg once daily, day 7 or 21, geometric mean	14.6 ng/mL

Repeated from above:
Structure (SMILES)	test	system	setting	Cmax
CS(=O)(=O)n1cc2c(n1)CN([C@H]1CO[C@H](c3cc(F)ccc3F)[C@@H](N)C1)C2		healthy male human, plasma	oral, 50 mg once weekly, day 15, fasted, geometric mean	1080 nM
COc1ccnc(C[S+]([O-])c2nc3ccc(OC(F)F)cc3[nH]2)c1OC (stereo not shown)		human, CYP2C19 intermediate metabolizers, plasma	oral, 40 mg/day, day 5	9570 ± 420 ng/mL
